# Published values of several laboratories.
# A part holds a random share of what one study measured. Substitutions count along the parent as printed.

# Series 1
# Target: Sal-like protein 4, full length isoform B (SALL4, Homo sapiens, UniProt Q9UJQ4-2, residues 1-616)
# Method: universal PBM
# Form: double-stranded DNA, one strand shown
# Matrix: in vitro
# Concentration: not given
# Notes: 8-mer, flanks averaged, mean of replicates
# Reading: higher = stronger binding
Strand,E-score
AATAGCAG,-0.018
ACATTTCC,0.018
AGAGGATC,-0.19
GACGCGTA,0.0724
CCCTAATC,-0.114
ACGTGGCA,-0.174
AAATCGTA,0.258
GTTCCAAC,-0.0973
AGTCGAAT,-0.0336
AGGTAACA,0.179
TAGCGATA,0.172
ACGTCACC,-0.168
CGTGATTC,0.0424
GCGCAACA,-0.04
CGTAACTA,0.0744
CCGCCAAC,-0.313
AAGATACG,0.139
CATTGGGA,-0.0604
CAAATATC,0.237

# Series 2
# Target: CCND1, cyclin fold, Cln2 fusion (human)
# Method: yeast growth competition, sequencing
# Matrix: yeast
# Notes: weak parent motif
# Baseline: not given
# Reading: higher = stronger binding
# Starting sequence: PKN2 docking peptide (human); DSTVTKLDFDLEP; partner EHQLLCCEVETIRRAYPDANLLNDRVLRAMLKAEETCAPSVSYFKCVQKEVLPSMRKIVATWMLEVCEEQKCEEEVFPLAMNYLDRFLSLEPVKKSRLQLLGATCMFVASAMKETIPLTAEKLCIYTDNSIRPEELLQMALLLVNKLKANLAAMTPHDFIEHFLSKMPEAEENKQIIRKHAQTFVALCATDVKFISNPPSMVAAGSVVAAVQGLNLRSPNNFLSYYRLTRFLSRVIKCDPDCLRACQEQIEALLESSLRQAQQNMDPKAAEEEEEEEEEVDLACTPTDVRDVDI
Change,normalised enrichment score
V4A,0.645
P13A,0.683
T5A,0.637
F9A,0.145
E12A,0.923
D8A,0.346
K6A,0.755

# Series 3
# Target: ABI1, truncated, D143A, DHFR fusion (Arabidopsis thaliana)
# Method: DHFR PCA, deep sequencing
# Matrix: yeast
# Notes: methotrexate growth selection, single substitutions
# Added: (+)-ABA 0.11 µM
# Baseline: wild-type fitted maximum
# Reading: higher = stronger binding
# Starting sequence: PYL1, truncated, DHFR fusion (Arabidopsis thaliana); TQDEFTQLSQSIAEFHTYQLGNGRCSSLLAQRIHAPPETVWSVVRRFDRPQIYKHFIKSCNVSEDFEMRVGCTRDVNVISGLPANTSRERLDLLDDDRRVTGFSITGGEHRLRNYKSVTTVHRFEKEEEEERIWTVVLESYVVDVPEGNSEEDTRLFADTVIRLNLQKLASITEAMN
Change,relative binding score
H122F,-6.75%
W134K,-0.356%
L93K,3.17%
I133D,63.2%
L8T,-3.87%
H122K,-11.1%
C25Y,-2.48%
C60H,2.26%
E139R,4.41%
N177P,26.7%
L91S,-0.798%
Q2G,16.9%
R99G,-4.21%
E130N,44.4%

# Series 4
# Target: Ras GTPase-activating protein-binding protein 1, C-terminal RGG region (G3BP1, Homo sapiens, UniProt Q13283)
# UniProt Q13283, sequence (whole entry, looked up): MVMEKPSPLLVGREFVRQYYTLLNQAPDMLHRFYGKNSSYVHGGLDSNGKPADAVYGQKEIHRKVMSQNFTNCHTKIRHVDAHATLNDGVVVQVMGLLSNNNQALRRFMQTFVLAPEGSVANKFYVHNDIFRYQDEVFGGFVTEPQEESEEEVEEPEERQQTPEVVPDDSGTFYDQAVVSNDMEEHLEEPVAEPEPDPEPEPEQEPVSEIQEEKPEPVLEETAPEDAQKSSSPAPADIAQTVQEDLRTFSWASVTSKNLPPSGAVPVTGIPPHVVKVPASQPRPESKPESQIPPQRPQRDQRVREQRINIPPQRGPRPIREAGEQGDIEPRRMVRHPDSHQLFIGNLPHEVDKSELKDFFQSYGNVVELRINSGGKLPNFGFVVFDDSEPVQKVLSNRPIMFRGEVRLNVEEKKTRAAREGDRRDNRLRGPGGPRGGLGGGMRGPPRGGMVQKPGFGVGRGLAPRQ
# Method: RNA Bind-n-Seq
# Form: RNA
# Matrix: in vitro
# Concentration: 1 µM
# Notes: whole 134-nt RNA, ends assumed
# Added: 150 mM KCl
# Baseline: input library
# Reading: higher = stronger binding
Strand,log2 enrichment
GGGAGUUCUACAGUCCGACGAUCUGGUAAGAAAUCUGCUUGUUUUAUUAAAAUGCUUAAUUGAAGAAAAUAAUAUUCUUCUGUGAUUAAAAUUAGGAAGAAAUAGAACCAUUUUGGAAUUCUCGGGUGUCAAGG,-1.65
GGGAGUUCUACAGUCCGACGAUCCAAGUCCUGUGCUACACAUCGUAUGUACCGAAUCGGUUUUUGGUUUUUGGAAAGGAAAGUAUUAUGUUACGCCGUUCGGAUCUGCACUUCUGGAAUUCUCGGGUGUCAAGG,-1.59
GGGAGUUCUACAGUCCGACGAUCAGUGACCAUUUUAGUUAAAUUUUGUUCCUCUUCCCCCUUUUCACUUUCCUGGAAGAUCGAUGUCCCGAUCAGGAAGGUAGAGAGUUUUCCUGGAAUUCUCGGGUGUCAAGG,-0.671
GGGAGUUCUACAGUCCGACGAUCCCUGUGCUACACAUCGUAUGUACCGAAUCGGGGCCCCCCCGGCCCCCCCGGGCCCCCCCGGAAAGUAUUAUGUUACGCCGUUCGGAUCUGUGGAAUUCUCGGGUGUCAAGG,-1.28
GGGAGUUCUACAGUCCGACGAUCACCAUGCAGGUGGGCAUCGUUGGGAAGUGGGGCAAGGGGGGGAUAGGGAGGGGGGUAACACUUUGGGAACAGGUGGUCCCAGGUCGUUUCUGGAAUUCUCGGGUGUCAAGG,-0.88
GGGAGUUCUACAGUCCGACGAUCGUCCUGUGCUACACAUCGUAUGUACCGAAUCGGGAAAAAAAGGGUGGGAAAAAAAGGGAAAGUAUUAUGUUACGCCGUUCGGAUCUGCACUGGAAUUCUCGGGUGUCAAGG,-0.387
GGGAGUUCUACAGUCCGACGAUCCCUGUGCUACACAUCGUAUGUACCGAAUCAAAUUUUUAAACCCCCCCAAACCCCCCCAAAAAAGUAUUAUGUUACGCCGUUCGGAUCUGCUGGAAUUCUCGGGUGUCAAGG,-1.05
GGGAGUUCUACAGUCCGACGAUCUGGCCCUGGUGGCAUGCGGGGAGGAAGAGGUGGCCUCAUGGAUCGUGGUGGUCCCGGUGGAAUGUGCAGAGGUGGCCGUGGUGGAGACAGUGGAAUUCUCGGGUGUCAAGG,3.25
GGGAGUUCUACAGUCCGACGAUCGGGUGGACACUGACGAGCUGGACAGCAACGUGGACGACUGGGAAGAGGAGACCAUUGAGUUCUUCGUCACUGAAGAAAUCAUUCCCCUCGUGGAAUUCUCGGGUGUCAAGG,-1.24
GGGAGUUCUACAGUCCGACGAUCCUCAAGUCCUGUGCUACACAUCGUAUGUACCGAAUCGGUGGUUUGGUUUUUGGAAAGUAUUAUGUUACGCCGUUCGGAUCUGCACUUCCAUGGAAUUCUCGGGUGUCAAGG,-0.876

# Further values, each from its own experiment
Molecule,target,test,test system,setting,scale,measurement,result
"PhoQ, residues 284 288 289 292 302 303 SSTLSG","PhoP, residues 12 14 15 18 19 LWHVM (Escherichia coli, UniProt P23836)","Sort-seq, item: YFP reporter",E. coli,"PhoQ-PhoP variant library, added: 10 µM Mg2+","baseline: high Mg2+ state, higher = stronger signaling",fold induction,10.2

# For quick reference, copied from above (series 2):
Change,normalised enrichment score
V4A,0.645
P13A,0.683
T5A,0.637
F9A,0.145
E12A,0.923
D8A,0.346
